Assay results collected from several papers.
A part holds a random share of what one study measured.

Sample 1
Target: PABPC1L2, full length, GST fusion (mouse, UniProt A0ABA7IW68)
Technique: RNAcompete
Molecule type: RNA
Matrix: in vitro
Concentration: 20 nM
Notes: 7-mer, probes averaged, single round
Relative to: mean of 7-mers
Direction: higher = stronger binding
Target sequence (chain): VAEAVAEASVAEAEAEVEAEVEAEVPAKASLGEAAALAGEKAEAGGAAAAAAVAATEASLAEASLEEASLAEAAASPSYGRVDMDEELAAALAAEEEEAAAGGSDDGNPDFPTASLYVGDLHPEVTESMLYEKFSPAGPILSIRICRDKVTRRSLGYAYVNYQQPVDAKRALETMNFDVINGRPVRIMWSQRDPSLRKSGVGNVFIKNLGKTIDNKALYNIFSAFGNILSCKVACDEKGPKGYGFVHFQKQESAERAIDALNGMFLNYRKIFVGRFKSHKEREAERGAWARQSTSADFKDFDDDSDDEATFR
| Sequence | 7-mer Z-score |
| --- | --- |
| AUUGCCU | -0.151 |
| UGCCUGU | -0.266 |
| GUGAACG | -0.222 |
| UGAAUCU | -0.271 |
| CCUGCAU | -0.255 |
| CACAUAC | -0.244 |
| GAUGUGC | 0.0841 |
| GAUUCGG | -0.258 |
| GAUGUUG | -0.253 |
| ACCGAAA | 0.773 |
| CCUUGCU | -0.364 |
| GAAUAAA | 2.65 |
| ACGCGGA | 0.117 |
| GUACUGA | -0.161 |
| ACUAUAG | -0.101 |
| CAUUGGA | 0.162 |
| AGUGCUG | -0.012 |
| AAUAGCC | 0.323 |
| AUAUAUA | -0.0156 |
| GAACAUC | -0.233 |
| CUAUUCA | -0.327 |
| AAGGCAU | 0.343 |
| ACGUAAG | -0.199 |

Sample 2
Target: Interferon regulatory factor 5, full length, phosphomimetic (IRF5, Homo sapiens, UniProt Q13568-2, residues 1-514, K96S/S451D/S453D/S456D/S462D)
Technique: protein-binding microarray
Molecule type: double-stranded DNA, one strand shown
Matrix: in vitro
Concentration: 250 nM
Notes: 60-bp whole probe
Added: salmon DNA 0.4 mg/ml
Relative to: random background probes
Direction: higher = stronger binding
Shared flanks, not repeated: GCCTAGCAC … GTCTTGATTCGCTTGACGCTGCTG
| Sequence | log fluorescence |
| --- | --- |
| TCAGATTTCAGACTGGATTAGTGCTAG | 0.384 z-score |
| TGCTTCCTCTTTCTCTGCTAGTGCTAG | 1.6 z-score |
| GACGACTTCAGACTGGAGACGTGCTAG | -0.411 z-score |
| GGAGGCTCTTGCTACTGAAGGTGCTAG | -0.818 z-score |
| TCACATACGAGTTTCCAACTGTGCTAG | 0.415 z-score |
| GACGATTTCAGTCTCGACACGTGCTAG | 1.59 z-score |
| TTAGGATTGGGGTTTCGGTTAGTGCTA | 6.83 z-score |
| GACGGTATCCCTATCCTGACGTGCTAG | -0.093 z-score |
| TTAGGACTGGACTTACGGTTAGTGCTA | 0.0639 z-score |
| TTAGAACTAGGGTTTCGATTAGTGCTA | 4.92 z-score |
| GACGGTTCCCTTTCCCTGACGTGCTAG | 0.282 z-score |
| GAGGGTTCCGGTTTCGGGACGTGCTAG | 3.99 z-score |
| GACGGTTTCCGTTTCGGGACGTGCTAG | 4.1 z-score |
| GACTGTATCCTTATCCTGACGTGCTAG | 0.235 z-score |
| GACGGTTTCGGGTACCGGGACGTGCTA | 7.91 z-score |
| GACGATTTCTGGTATCGAGACGTGCTA | 2.01 z-score |
| ACTCGTGTTTTTCTCCTATTGTGCTAG | 0.762 z-score |

Sample 3
Target: Prothrombin, mature alpha-thrombin (F2, Homo sapiens, UniProt P00734)
Technique: aptamer microarray, sandwich
Molecule type: DNA with 2'F-ANA
Matrix: in vitro
Concentration: 200 nM
Notes: whole 15-mer aptamer, many near background
Added: Cy3 exosite-II aptamer, 400 nM
Direction: higher = stronger binding
Sequence: GGTTGGTGTGGTTGG
| Modification | mean fluorescence intensity [a.u.] |
| --- | --- |
| 2'F-ANA at 3 4 7 12 13 15 | 773 |
| 2'F-ANA at 4 7 11 13 14 | 91.9 |
| 2'F-ANA at 1 3 10 11 13 | 74.2 |
| 2'F-ANA at 1 5 7 12 14 | 45.3 |
| 2'F-ANA at 2 4 6 8 9 | 347 |
| 2'F-ANA at 2 9 14 15 | 149 |
| 2'F-ANA at 1 2 3 4 6 9 12 13 15 | 185 |
| 2'F-ANA at 1 2 5 6 7 8 9 11 12 13 14 15 | 49.6 |
| 2'F-ANA at 1 3 4 5 6 9 10 12 | 49.7 |
| 2'F-ANA at 1 2 3 4 6 7 10 13 14 | 47.5 |
| 2'F-ANA at 2 4 5 6 7 9 10 13 14 15 | 46.9 |
| 2'F-ANA at 3 4 7 10 11 13 14 | 195 |
| 2'F-ANA at 1 2 3 5 8 9 10 13 14 | 48.4 |
| 2'F-ANA at 1 2 3 4 6 7 8 9 10 13 15 | 57.3 |
| 2'F-ANA at 1 6 10 11 12 13 14 15 | 50.8 |
| 2'F-ANA at 1 3 4 5 6 10 13 15 | 44.3 |
| 2'F-ANA at 2 3 4 5 6 10 12 14 15 | 49.4 |
| 2'F-ANA at 1 2 3 4 6 11 12 13 14 | 64.1 |
| 2'F-ANA at 1 2 3 4 5 6 8 10 11 12 13 | 52.4 |
| 2'F-ANA at 1 6 7 9 10 12 13 15 | 64.6 |
| 2'F-ANA at 1 2 3 4 8 11 14 15 | 81 |
| 2'F-ANA at 2 3 4 7 9 10 11 12 15 | 298 |
| 2'F-ANA at 1 2 3 5 6 7 9 10 12 13 15 | 50.7 |
| 2'F-ANA at 3 5 8 9 12 14 15 | 61.4 |
| 2'F-ANA at 1 3 6 8 13 14 15 | 78.9 |

Sample 4
Target: RNA binding protein fox-1 homolog 2, RRM domain, GST-SBP tag (RBFOX2, Homo sapiens, UniProt O43251-10, residues 100-194)
Technique: RNA Bind-n-Seq
Molecule type: RNA
Matrix: in vitro
Concentration: 365 nM
Notes: natural RNA segment, single round, ends assumed
Relative to: no-protein control
Direction: higher = stronger binding
Shared flanks, not repeated: GGGAGUUCUACAGUCCGACGAUC … UGGAAUUCUCGGGUGCCAA
Target sequence (chain): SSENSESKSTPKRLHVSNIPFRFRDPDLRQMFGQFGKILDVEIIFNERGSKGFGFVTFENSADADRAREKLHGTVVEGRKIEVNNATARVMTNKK
| Sequence | RBNS enrichment (R) |
| --- | --- |
| CAUGUAAGUGUUAAGUUUUUAAUCUGGGAGCAGGGCAUAGGAAGAAAAUGUCAGUAGUGCUAAUGCAUUUUGCACUAGAACGCUUCGGGAAAAUAUUCAUGCUUGCCAUC | 0.976 |
| AAAGCAGGAGCUCAGACUCUUAGAGCCAGCUGUGGCUUCGGACCCAAGGCCUGACCUAGGCUGCUAUCCUAAUAUUGCAGGAGGGGCCUCUCUUCCAAGCCCCACCCUAA | 0.409 |
| AAAAUAACAGUGAAGUGAUUGAAACUUUCUUCUGAUGAGUUUCUCUAACCUACAGGAUGGAGUAAAACAACUGCUACAGUUCAGCACCUGUUUUAUGUGCCGAAUCACUG | 0.286 |
| UUUUCUCCCACCUCAUCCUUCUUCAGCCCCACCCAGCCCCCACUCCCUAGGCUCAGGUAGCUUGUUCCUUGGGGUGGGAAGGGAGCUAGGGAAGGGUCAAAGUGUGGACA | 0.299 |
| GAAUAUGGAAUGAGAACAUUCAUUAUUGAGGUUGUCCAAUGGCCAGGGUAUGCUUUCUAGAAAAUAUGCUGUUCUGUCCCAGAAUGACUGUGCAUAGGGUAUCCGUUUCA | 0.449 |
| AGGGUACCCACUACUCAGGCCUCCCUAGCGCCUCCUCCCCUAACGUCUCCCCGGCCUACUCAUCCUGAGUCACCCUAUCACCAUGGGAGGUGGAGCCUCAAACUAAAACC | 0.398 |
| UGGGAAUGGUAUAGGAUUGUCCCCAAGUGUCCAUGUAACUUUUGUUUUAACCUUUGCACCUUCUCAGUGCUGUAUGCGGCUGCAGCCGUCUCACCUGUUUCCCCACAAAG | 1.14 |
| AGGAGGGCCGACGGGUGCCUCGGUCGCUCUGGGGGCAGUUUAGAUGCUGUGAAAUUAAACCCGUUCUAAGUGUACUUGUUUGAAUUAACUGUAUUGUAAUAUUAUUUGUU | 0.858 |
| GGCCAUAUAACUACACAAAACUGACCAAUCUGGGUUGCCAAAGCAGCCAGGCUUAUGCUGAAACCGGGGAAGUCUGACAUAUGCAGGAAACUCUUUUGAAAUAACUUUGG | 0.286 |
| CGCCAGCCCUUUGCACAGGCAGCUGGGAAUUCCACCUGAAACAGCUGGUCCCUAGGUUAGCGGGUUCCCAGCCCCCCUAAUCAGAGACUGAAGGACAAUUGACUUUUAUU | 1.43 |
| UUCCUAGCAAACGGGAGGAAACCAGCUCCUGUGUGCCUCUGACGACUGUUGUCUGUGCCAACCUAAGAGAUUCCCAGUGCUGGGACCACUGCUUUUUUUCCUGAUGUGGG | 0.457 |
| GAUAAUAUGUGACUUUAGUCUAGUCUUCUCUGAGACUUUGAGACCCUUGGCUUGGCUGGUAUAAGUGUGUCAUCCGGACCACCAAACUUCAGAUUAAGCUGUUACUGAGU | 0.686 |

Some of these lines once more (sample 2):
| Sequence | log fluorescence |
| --- | --- |
| GGAGGCTCTTGCTACTGAAGGTGCTAG | -0.818 z-score |
| TCACATACGAGTTTCCAACTGTGCTAG | 0.415 z-score |
| GACGATTTCAGTCTCGACACGTGCTAG | 1.59 z-score |
| TTAGGATTGGGGTTTCGGTTAGTGCTA | 6.83 z-score |
| GACGGTATCCCTATCCTGACGTGCTAG | -0.093 z-score |
| TTAGGACTGGACTTACGGTTAGTGCTA | 0.0639 z-score |
| TTAGAACTAGGGTTTCGATTAGTGCTA | 4.92 z-score |
| GACGGTTCCCTTTCCCTGACGTGCTAG | 0.282 z-score |
| GAGGGTTCCGGTTTCGGGACGTGCTAG | 3.99 z-score |
| GACGGTTTCCGTTTCGGGACGTGCTAG | 4.1 z-score |
